{"data": "Assay results from different studies", "note": "A part holds a random share of what one study measured.", "chain of UniProt Q9NRP7 (whole entry, looked up)": "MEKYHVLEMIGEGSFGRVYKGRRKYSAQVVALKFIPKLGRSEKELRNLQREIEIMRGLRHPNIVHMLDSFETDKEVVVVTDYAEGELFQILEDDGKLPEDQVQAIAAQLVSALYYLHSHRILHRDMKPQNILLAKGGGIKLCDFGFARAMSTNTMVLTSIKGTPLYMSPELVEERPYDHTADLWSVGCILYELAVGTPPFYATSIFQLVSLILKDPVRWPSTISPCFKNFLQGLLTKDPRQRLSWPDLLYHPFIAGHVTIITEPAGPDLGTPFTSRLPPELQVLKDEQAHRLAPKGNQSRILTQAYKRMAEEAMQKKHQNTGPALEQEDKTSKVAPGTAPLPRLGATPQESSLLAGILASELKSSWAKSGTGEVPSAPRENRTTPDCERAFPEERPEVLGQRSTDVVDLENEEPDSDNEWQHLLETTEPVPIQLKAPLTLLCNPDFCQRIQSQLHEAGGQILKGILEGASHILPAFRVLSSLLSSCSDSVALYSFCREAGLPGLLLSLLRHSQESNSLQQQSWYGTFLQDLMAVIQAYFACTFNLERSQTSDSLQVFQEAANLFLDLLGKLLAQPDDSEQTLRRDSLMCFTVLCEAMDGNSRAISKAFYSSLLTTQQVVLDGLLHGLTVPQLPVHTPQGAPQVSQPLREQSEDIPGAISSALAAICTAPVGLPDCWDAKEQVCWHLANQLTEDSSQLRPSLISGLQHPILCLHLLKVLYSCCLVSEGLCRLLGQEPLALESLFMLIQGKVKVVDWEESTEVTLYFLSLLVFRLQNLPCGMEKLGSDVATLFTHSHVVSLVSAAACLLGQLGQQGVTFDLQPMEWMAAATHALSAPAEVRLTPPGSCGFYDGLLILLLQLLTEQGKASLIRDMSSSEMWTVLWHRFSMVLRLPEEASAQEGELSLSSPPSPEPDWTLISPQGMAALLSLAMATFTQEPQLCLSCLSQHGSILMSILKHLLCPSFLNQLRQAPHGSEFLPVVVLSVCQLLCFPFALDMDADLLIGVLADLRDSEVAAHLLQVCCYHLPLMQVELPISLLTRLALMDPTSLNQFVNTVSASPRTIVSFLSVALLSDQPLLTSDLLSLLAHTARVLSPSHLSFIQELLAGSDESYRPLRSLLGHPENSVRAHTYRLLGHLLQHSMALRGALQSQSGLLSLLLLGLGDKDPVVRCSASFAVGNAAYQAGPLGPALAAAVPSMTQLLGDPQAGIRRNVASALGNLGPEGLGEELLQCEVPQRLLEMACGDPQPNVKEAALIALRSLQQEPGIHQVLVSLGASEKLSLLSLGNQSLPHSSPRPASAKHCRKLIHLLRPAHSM", "chain of UniProt Q00526 (whole entry, looked up)": "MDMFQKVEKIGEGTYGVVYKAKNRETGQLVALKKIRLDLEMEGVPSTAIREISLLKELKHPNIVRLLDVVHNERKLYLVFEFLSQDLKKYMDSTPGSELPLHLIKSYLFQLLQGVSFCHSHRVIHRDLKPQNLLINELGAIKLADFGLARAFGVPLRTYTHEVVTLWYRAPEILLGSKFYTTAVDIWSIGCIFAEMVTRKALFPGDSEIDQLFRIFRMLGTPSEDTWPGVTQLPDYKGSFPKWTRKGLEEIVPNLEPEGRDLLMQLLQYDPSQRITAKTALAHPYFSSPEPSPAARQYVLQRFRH", "chain of UniProt Q9UL54 (whole entry, looked up)": "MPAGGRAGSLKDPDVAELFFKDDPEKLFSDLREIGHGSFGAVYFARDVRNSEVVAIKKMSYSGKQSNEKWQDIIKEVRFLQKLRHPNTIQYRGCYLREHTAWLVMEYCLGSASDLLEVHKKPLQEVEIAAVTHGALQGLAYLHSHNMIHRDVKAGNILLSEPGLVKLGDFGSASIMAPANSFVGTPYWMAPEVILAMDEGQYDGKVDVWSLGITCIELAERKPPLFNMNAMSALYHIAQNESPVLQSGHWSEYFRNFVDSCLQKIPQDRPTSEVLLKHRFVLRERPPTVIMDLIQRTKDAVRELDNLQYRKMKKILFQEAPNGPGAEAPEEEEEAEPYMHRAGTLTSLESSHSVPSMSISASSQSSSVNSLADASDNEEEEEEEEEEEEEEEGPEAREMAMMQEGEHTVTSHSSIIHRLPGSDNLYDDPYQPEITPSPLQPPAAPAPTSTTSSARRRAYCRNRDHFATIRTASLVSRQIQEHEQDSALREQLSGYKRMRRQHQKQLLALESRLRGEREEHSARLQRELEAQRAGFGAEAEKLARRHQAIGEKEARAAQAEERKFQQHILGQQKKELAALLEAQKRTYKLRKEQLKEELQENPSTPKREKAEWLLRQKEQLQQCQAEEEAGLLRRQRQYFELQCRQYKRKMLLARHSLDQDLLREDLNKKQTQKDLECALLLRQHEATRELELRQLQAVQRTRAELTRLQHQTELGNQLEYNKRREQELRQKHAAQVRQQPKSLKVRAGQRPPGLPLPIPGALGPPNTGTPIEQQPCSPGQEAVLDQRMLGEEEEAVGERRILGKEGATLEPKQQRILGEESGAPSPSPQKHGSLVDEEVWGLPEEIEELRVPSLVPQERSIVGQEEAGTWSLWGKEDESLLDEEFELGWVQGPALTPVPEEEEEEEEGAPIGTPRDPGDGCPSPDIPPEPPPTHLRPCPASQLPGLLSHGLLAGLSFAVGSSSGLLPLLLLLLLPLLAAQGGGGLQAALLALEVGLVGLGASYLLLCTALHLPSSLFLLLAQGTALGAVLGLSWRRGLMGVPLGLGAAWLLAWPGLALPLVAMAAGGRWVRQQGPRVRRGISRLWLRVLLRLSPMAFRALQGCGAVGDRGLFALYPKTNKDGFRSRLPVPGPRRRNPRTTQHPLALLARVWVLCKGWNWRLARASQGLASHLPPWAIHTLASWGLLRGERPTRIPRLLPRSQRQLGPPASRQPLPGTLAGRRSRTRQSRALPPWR", "chain of UniProt P54762 (whole entry, looked up)": "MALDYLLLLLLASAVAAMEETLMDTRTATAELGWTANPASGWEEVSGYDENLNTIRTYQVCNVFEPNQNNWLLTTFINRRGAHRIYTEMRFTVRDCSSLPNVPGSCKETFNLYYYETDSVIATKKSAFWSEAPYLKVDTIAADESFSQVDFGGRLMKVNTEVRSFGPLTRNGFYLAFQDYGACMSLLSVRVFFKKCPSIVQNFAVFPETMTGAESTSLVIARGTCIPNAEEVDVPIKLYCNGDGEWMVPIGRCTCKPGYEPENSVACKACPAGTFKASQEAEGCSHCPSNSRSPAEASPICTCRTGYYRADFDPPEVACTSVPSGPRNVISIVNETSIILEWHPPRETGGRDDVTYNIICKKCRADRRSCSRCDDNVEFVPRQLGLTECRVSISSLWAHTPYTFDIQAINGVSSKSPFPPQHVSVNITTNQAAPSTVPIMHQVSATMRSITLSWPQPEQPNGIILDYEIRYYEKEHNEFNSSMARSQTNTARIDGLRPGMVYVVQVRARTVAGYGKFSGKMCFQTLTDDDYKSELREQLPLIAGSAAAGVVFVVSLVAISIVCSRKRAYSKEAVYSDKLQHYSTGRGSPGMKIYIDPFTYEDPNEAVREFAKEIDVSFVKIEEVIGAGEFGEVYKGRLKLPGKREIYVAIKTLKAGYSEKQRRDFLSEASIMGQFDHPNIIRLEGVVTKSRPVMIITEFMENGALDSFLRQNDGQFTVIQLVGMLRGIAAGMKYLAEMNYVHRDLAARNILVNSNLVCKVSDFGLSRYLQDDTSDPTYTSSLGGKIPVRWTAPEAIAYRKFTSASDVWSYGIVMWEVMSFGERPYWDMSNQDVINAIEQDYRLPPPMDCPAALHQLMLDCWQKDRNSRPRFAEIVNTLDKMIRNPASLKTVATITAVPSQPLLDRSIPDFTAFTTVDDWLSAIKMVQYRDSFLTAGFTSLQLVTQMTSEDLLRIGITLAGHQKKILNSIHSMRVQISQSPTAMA"}
{"data": "Study 1", "organism": "Sarcocystis neurona", "read-out": "parasite growth", "concentration": "10 µM", "time": "96 h", "setting": "first screen", "reference": "untreated"}
{"SMILES": "CC(C)C(=O)Nc1ccc([N+](=O)[O-])c(C(F)(F)F)c1", "log2 fold change": 0.25}
{"SMILES": "CO[C@H]1/C=C/O[C@@]2(C)Oc3c(C)c(O)c4c(O)c(c5c(nc6cc(C)ccn65)c4c3C2=O)NC(=O)/C(C)=C\\C=C\\[C@H](C)[C@H](O)[C@@H](C)[C@@H](O)[C@@H](C)[C@H](OC(C)=O)[C@@H]1C", "log2 fold change": 0.07}
{"SMILES": "CC1(C)S[C@@H]2[C@H](NC(=O)COc3ccccc3)C(=O)N2[C@H]1C(=O)O", "log2 fold change": -0.15}
{"SMILES": "CCN(CC)CC#CCOC(=O)C(O)(c1ccccc1)C1CCCCC1 (stereo not shown)", "log2 fold change": 0.24}
{"SMILES": "CCOc1cc(CC(=O)N[C@@H](CC(C)C)c2ccccc2N2CCCCC2)ccc1C(=O)O", "log2 fold change": -0.62}
{"SMILES": "CCN(CC)CCOC(=O)c1ccc(N)cc1", "log2 fold change": 0.29}
{"SMILES": "COc1cccc2c1C(=O)c1c(O)c3c(c(O)c1C2=O)C[C@@](O)(C(C)=O)C[C@@H]3O[C@H]1C[C@H](N)[C@H](O)[C@H](C)O1", "log2 fold change": -5.34}
{"data": "Study 2", "cell line": "HaCaT", "concentration": "100 µM", "time": "36 h"}
{"Structure (SMILES)": "CC(C(=O)O)c1ccc2c(c1)CC(=O)c1ccccc1S2 (stereo not shown)", "viability": "88.7%"}
{"Structure (SMILES)": "CCOC(=O)[C@H](CCc1ccccc1)N[C@@H](C)C(=O)N(CC(=O)O)C1Cc2ccccc2C1", "viability": "59.9%"}
{"Structure (SMILES)": "C[n+]1ccccc1/C=N/O", "viability": "92.7%"}
{"Structure (SMILES)": "CN(C)CCC(c1ccc(Cl)cc1)c1ccccn1 (stereo not shown)", "viability": "84.7%"}
{"Structure (SMILES)": "Oc1ncnc2[nH]ncc12", "viability": "94.2%"}
{"Structure (SMILES)": "CCN(Cc1ccncc1)C(=O)C(CO)c1ccccc1 (stereo not shown)", "viability": "92.3%"}
{"Structure (SMILES)": "CC(S)C(=O)NCC(=O)O (stereo not shown)", "viability": "100%"}
{"Structure (SMILES)": "CC(=O)OC(C)C(C)C(=O)OC[C@@]12[C@H]3C[C@]4(C)C(=CC[C@@H]5[C@@]6(C)CC[C@H](O[C@@H]7O[C@H](C(=O)O)[C@@H](O[C@@H]8O[C@H](CO)[C@@H](O)[C@H](O)[C@H]8O)[C@H](O)[C@H]7O[C@@H]7OC[C@@H](O)[C@H](O)[C@H]7O)[C@@](C)(CO)[C@@H]6CC[C@]54C)[C@@H]1CC(C)(C)[C@H](O3)[C@@H]2O (stereo partly shown)", "viability": "5.93%"}
{"data": "Study 3", "Structure (SMILES)": "COc1cc(C(=O)N2CCC(N3CCN(C)CC3)CC2)ccc1Nc1ncc2c(n1)N(C)c1ccccc1C(=O)N2C"}
{"target or system": "IRAK3 (human)", "assay": "probe labelling, KiNativ ADP probe", "system": "human PBMC lysate", "conditions": "concentration not given, LYS1 labelled site", "inhibition [%]": -12.1}
{"target or system": "mouse CaMK2β and CaMK2δ", "assay": "probe labelling, KiNativ ATP probe", "system": "mouse brain lysate", "conditions": "0.1 µM, LYS1 site", "inhibition [%]": -4}
{"target or system": "ATR (mouse)", "assay": "probe labelling, KiNativ, item: FYIMMCkPK peptide, ATP site", "system": "brain tissue lysate (mouse)", "conditions": "0.1 µM, with: ATP acyl-phosphate probe", "inhibition [%]": 16.8}
{"target or system": "mouse PKACα", "assay": "probe labelling, KiNativ ADP probe", "system": "mouse brain lysate", "conditions": "0.1 µM, LYS1 site", "inhibition [%]": -19.7}
{"target or system": "human PBMC", "assay": "probe labeling, inhibitor, KiNativ profiling, item: DVkPSNILVNSR", "system": "cell lysate", "conditions": "1 µM, LYS2 site, with: ADP acyl-phosphate probe", "inhibition [%]": 0.7}
{"target or system": "RSKL1 domain 1 (mouse)", "assay": "probe labelling, inhibitor, KiNativ ActivX ADP probe", "system": "mouse brain lysate", "conditions": "1 µM, kinase domain peptide", "inhibition [%]": -11.5}
{"target or system": "RSKL1 domain 1 (mouse)", "assay": "probe labelling, inhibitor, KiNativ ActivX ATP probe", "system": "mouse brain lysate", "conditions": "0.1 µM", "inhibition [%]": -8}
{"target or system": "Mitogen-activated protein kinase 10 (Mapk10, Mus musculus, UniProt Q61831)", "conditions": "0.1 µM", "inhibition [%]": -30.9}
{"target or system": "NDR2 (mouse)", "assay": "probe labelling, KiNativ ADP probe", "system": "mouse brain lysate", "conditions": "0.1 µM, LYS1 labelled site", "inhibition [%]": 0.3}
{"data": "Study 4", "SMILES": "O=C(NCc1ncc(C(F)(F)F)cc1Cl)c1ccc2c(c1)C1(CCS(=O)(=O)CC1)[C@H](C1CC1)N2S(=O)(=O)c1ccc(F)cc1", "read-out": "cell-free assay", "technique": "competition with immobilised ligand", "concentration": "1 µM"}
{"target": "CDC42BPA (Homo sapiens, UniProt Q5VT25)", "remaining binding": "100%"}
{"target": "PIK3CA (Homo sapiens, UniProt P42336, E545K)", "remaining binding": "84%"}
{"target": "CILK1 (Homo sapiens, UniProt Q9UPZ9)", "remaining binding": "100%"}
{"target": "CDK3 (Homo sapiens, UniProt Q00526)", "remaining binding": "100%"}
{"target": "Tyrosine-protein kinase ABL1, phosphorylated (ABL1, Homo sapiens, UniProt P00519, Y253F)", "remaining binding": "85%"}
{"target": "EPHB1 (Homo sapiens, UniProt P54762)", "remaining binding": "100%"}
{"target": "PIK3CG (Homo sapiens, UniProt P48736)", "remaining binding": "82%"}
{"target": "WNK1 (Homo sapiens, UniProt Q9H4A3)", "remaining binding": "90%"}
{"target": "ZAP70 (Homo sapiens, UniProt P43403)", "remaining binding": "84%"}
{"target": "TAOK2 (Homo sapiens, UniProt Q9UL54)", "remaining binding": "81%"}
{"target": "STK36 (Homo sapiens, UniProt Q9NRP7)", "remaining binding": "100%"}
{"target": "SRPK2 (Homo sapiens, UniProt P78362)", "remaining binding": "91%"}
{"target": "HCK (Homo sapiens, UniProt P08631)", "remaining binding": "69%"}
{"target": "MET (Homo sapiens, UniProt P08581, M1250T)", "remaining binding": "89%"}
{"target": "RIOK1 (Homo sapiens, UniProt Q9BRS2)", "remaining binding": "100%"}
{"target": "MAPK4 (Homo sapiens, UniProt P31152)", "remaining binding": "91%"}
{"target": "MKNK2 (Homo sapiens, UniProt Q9HBH9)", "remaining binding": "83%"}
{"target": "CASK (Homo sapiens, UniProt O14936)", "remaining binding": "75%"}
{"target": "FLT3 (Homo sapiens, UniProt P36888, ITD)", "remaining binding": "100%"}
{"note": "For quick reference, copied from above (study 3):"}
{"target or system": "mouse PKACα", "assay": "probe labelling, KiNativ ADP probe", "system": "mouse brain lysate", "conditions": "0.1 µM, LYS1 site", "inhibition [%]": -19.7}
{"target or system": "RSKL1 domain 1 (mouse)", "assay": "probe labelling, inhibitor, KiNativ ActivX ATP probe", "system": "mouse brain lysate", "conditions": "0.1 µM", "inhibition [%]": -8}
{"target or system": "human PBMC", "assay": "probe labeling, inhibitor, KiNativ profiling, item: DVkPSNILVNSR", "system": "cell lysate", "conditions": "1 µM, LYS2 site, with: ADP acyl-phosphate probe", "inhibition [%]": 0.7}
{"target or system": "NDR2 (mouse)", "assay": "probe labelling, KiNativ ADP probe", "system": "mouse brain lysate", "conditions": "0.1 µM, LYS1 labelled site", "inhibition [%]": 0.3}
